Measured values gathered from unrelated publications.
Numbered parts are unrelated; each lists some results of a single study.
Sequence of UniProt Q13546 (whole entry, looked up): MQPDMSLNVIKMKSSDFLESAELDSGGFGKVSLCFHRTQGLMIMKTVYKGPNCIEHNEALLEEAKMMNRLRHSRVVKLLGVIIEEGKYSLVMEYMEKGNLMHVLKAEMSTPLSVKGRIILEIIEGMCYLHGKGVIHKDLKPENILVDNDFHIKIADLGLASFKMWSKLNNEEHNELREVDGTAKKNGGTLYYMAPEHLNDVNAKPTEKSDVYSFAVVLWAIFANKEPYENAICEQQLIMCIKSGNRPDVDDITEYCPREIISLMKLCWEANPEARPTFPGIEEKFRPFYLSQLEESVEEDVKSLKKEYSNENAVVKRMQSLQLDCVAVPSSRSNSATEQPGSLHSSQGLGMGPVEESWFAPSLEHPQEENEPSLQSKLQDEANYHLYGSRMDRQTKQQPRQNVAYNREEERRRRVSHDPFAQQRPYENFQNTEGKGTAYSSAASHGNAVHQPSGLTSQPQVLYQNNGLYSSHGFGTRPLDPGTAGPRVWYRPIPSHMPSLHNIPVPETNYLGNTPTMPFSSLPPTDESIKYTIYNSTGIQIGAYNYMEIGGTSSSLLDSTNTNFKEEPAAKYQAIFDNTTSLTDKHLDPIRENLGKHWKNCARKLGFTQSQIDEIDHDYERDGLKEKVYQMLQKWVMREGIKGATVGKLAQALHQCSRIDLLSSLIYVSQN
Sequence of UniProt Q04759 (whole entry, looked up): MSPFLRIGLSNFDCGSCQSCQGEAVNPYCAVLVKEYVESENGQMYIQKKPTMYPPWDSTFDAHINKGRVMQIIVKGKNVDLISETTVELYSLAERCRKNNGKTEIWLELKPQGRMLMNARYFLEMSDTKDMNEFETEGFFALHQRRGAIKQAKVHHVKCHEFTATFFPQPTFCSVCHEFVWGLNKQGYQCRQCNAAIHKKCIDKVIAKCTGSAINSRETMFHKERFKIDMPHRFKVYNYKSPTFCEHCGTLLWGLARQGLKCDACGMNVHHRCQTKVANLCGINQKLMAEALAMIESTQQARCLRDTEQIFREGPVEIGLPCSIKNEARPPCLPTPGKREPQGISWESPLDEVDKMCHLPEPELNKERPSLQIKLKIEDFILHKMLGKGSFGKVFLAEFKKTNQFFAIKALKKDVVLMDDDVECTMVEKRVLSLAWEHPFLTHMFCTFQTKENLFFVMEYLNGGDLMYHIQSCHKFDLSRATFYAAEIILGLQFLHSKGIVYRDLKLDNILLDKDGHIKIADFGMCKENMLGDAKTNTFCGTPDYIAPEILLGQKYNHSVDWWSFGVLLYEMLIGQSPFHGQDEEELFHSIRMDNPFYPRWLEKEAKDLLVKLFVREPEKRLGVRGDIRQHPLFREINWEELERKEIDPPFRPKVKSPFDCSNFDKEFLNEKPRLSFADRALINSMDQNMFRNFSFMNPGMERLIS
Sequence of UniProt P45984 (whole entry, looked up): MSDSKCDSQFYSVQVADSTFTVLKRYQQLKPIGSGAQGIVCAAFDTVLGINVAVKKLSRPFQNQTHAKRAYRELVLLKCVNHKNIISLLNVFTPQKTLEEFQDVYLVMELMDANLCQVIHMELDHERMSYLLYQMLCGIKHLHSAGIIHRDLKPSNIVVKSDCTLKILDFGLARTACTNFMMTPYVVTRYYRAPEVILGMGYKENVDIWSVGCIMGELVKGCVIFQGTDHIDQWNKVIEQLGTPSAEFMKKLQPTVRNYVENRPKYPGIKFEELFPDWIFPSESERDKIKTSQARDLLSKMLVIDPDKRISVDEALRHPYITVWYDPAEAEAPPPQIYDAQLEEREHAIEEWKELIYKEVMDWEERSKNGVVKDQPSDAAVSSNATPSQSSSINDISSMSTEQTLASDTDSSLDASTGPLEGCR
Sequence of UniProt Q9UK32 (whole entry, looked up): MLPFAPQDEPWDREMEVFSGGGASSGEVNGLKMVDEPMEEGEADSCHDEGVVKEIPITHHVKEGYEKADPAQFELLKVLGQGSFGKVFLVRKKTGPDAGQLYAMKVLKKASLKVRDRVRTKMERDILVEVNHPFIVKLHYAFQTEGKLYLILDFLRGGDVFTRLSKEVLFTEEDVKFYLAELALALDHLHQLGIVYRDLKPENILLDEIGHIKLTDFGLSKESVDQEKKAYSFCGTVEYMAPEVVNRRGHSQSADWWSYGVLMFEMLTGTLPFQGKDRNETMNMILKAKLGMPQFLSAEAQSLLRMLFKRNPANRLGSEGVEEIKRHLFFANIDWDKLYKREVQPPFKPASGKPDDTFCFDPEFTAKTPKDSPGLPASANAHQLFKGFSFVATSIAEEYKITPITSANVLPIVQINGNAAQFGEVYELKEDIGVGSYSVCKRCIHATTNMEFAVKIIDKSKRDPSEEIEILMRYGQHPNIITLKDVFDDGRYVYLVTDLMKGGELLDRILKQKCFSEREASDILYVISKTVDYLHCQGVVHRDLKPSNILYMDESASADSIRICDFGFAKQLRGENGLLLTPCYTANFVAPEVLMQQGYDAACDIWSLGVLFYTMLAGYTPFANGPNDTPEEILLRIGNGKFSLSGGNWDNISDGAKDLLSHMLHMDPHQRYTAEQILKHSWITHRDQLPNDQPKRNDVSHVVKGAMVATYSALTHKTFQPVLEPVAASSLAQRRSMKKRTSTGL

Series 1
Target: Proto-oncogene tyrosine-protein kinase Src (SRC, Homo sapiens, UniProt P12931)
Effect on: enzyme activity
Action: inhibitor
Concentration: 0.5 µM
Reference: control
Endpoint: remaining activity
O=C(Nc1cccc(Nc2nccc(Nc3cccc(C(F)(F)F)c3)n2)c1)C1CC1: 64.5%
C[C@@H]1CCN(C(=O)CC#N)C[C@@H]1N(C)c1ncnc2[nH]ccc12: 99.8%
CCOc1nc(NC(=O)Cc2cc(OC)ccc2OC)cc(N)c1C#N: 94.7%
N#Cc1c(NC(=O)c2cccc3ccccc23)sc2c1CCCC2: 93.5%
CN(C)C[C@H]1CCn2c(c(C3=C(c4cn(C)c5ccccc45)C(=O)NC3=O)c3ccccc32)C1: 101%
COc1cc2ncnc(Nc3ccc(O)c(Br)c3)c2cc1OC: 77.5%
Cc1nc2cc3nc(-c4cccs4)cnc3cc2n1C: 89.9%
CCN(CC)CCNC(=O)c1c(C)[nH]c(/C=C2\C(=O)Nc3ccc(Cl)cc32)c1C: 26%
COc1cc2c(cc1OC)-c1[nH]nc(Nc3cccc(F)c3)c1C2: 63.4%
Ic1cccc(CSc2nnc(-c3ccncc3)o2)c1: 101%
Nc1cccc(-c2cc3c(Oc4cccc(O)c4)ncnc3[nH]2)c1: 2.07%
c1ccc(-c2[nH]ncc2-c2ccnc3ccccc23)nc1: 94.7%
O=C(NC(NC(=S)Nc1ccc(F)c([N+](=O)[O-])c1)C(Cl)(Cl)Cl)C(c1ccccc1)c1ccccc1 (stereo not shown): 96.1%
Cc1cc2ncc(-c3ccccc3)nc2cc1C: 104%
Cc1cn(-c2cc(NC(=O)c3ccc(C)c(Nc4nccc(-c5cccnc5)n4)c3)cc(C(F)(F)F)c2)cn1: 95.2%
CCN(CC)C(=O)c1ccc(Nc2nc(OCC3CCCCC3)c3[nH]cnc3n2)cc1: 72.8%
c1ccc(-c2cnc(Nc3ccc(OCCN4CCCC4)cc3)s2)cc1: 75.3%
Cn1nc2c3c(cccc31)C(=O)c1ccccc1-2: 90.7%
O=C1C(Cl)=C(N2C(=O)CCC2=O)C(=O)c2ccccc21: 95.1%
N#C/C(=C\c1ccc(O)c(O)c1)C(=O)NCc1ccccc1: 94.8%
CN([C@@H](Cc1ccc(OS(=O)(=O)c2cccc3cnccc23)cc1)C(=O)N1CCN(c2ccccc2)CC1)S(=O)(=O)c1cccc2cnccc12: 91.3%

Series 2
SMILES: Cc1nc(Nc2ncc(C(=O)Nc3c(C)cccc3Cl)s2)cc(N2CCN(CCO)CC2)n1
Action: inhibitor
Endpoint: inhibition
FGR (Homo sapiens, UniProt P09769); 10 µM: 100%
MAPK9 (Homo sapiens, UniProt P45984); 10 µM: < 50%
RIPK1 (Homo sapiens, UniProt Q13546); 10 µM: < 50%
SLK (Homo sapiens, UniProt Q9H2G2); 10 µM: 97%
ERBB2 (Homo sapiens, UniProt P04626); 1 µM: 91%
PAK4 (Homo sapiens, UniProt O96013); 10 µM: < 50%
PIK3CB (Homo sapiens, UniProt P42338); 10 µM: < 50%
NEK1 (Homo sapiens, UniProt Q96PY6); 10 µM: < 50%
PRKCQ (Homo sapiens, UniProt Q04759); 10 µM: < 50%

Series 3
Structure (SMILES): O=C(O)c1cc(-c2ccc(C3CCNCC3)cc2)c2ccc(-c3ccc(C(F)(F)F)cc3)cc2c1
Effect on: cell-free assay
Technique: competition with immobilised ligand
Concentration: 1 µM
Endpoint: remaining binding
SRC (Homo sapiens, UniProt P12931): 100%
Ribosomal protein S6 kinase alpha-6, C-terminal kinase domain (RPS6KA6, Homo sapiens, UniProt Q9UK32): 100%
MYLK4 (Homo sapiens, UniProt Q86YV6): 94%
EGFR (Homo sapiens, UniProt P00533, del746-750): 100%
HCK (Homo sapiens, UniProt P08631): 100%
MAP3K3 (Homo sapiens, UniProt Q99759): 83%
HASPIN (Homo sapiens, UniProt Q8TF76): 100%
Aurora kinase C (AURKC, Homo sapiens, UniProt Q9UQB9): 95%
DYRK1B (Homo sapiens, UniProt Q9Y463): 88%

Series 4
Target: Calcium/calmodulin-dependent protein kinase type II subunit alpha (CAMK2A, Homo sapiens, UniProt Q9UQM7)
Sequence of UniProt Q9UQM7 (whole entry, looked up): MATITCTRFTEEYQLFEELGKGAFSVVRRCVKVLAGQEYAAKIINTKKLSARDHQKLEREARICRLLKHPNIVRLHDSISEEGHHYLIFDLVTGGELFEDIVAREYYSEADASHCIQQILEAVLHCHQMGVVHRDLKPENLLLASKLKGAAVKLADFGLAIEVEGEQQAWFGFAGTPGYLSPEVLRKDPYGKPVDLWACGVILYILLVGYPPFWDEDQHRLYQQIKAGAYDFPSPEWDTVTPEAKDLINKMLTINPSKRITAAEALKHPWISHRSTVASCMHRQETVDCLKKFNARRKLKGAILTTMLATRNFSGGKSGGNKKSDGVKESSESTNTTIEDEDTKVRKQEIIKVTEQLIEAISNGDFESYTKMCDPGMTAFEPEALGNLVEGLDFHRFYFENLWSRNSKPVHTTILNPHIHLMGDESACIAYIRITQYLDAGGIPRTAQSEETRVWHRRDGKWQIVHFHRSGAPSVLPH
Effect on: enzyme activity
Action: inhibitor
Concentration: 10 µM
Endpoint: inhibition
COC1=C2C[C@@H](C)C[C@H](OC)[C@H](O)[C@@H](C)/C=C(\C)[C@H](OC(N)=O)[C@@H](OC)/C=C\C=C(/C)C(=O)NC(=CC1=O)C2=O: 17%
CCCCCCCCCCCCCCCCCC(=O)O: -11%
Cc1c(Cl)c(C)[n+]([O-])c(Cl)c1-c1noc(-c2cc(O)c(O)c([N+](=O)[O-])c2)n1: 9%
CCCCOc1ccc(C(=O)CCN2CCCCC2)cc1: 1%
Cc1cc(CC(C)CC(C)(C)C)n(O)c(=O)c1 (stereo not shown): -7%
OCc1ccc(CO)o1: -29%
CC(C)C[C@H](NC(=O)[C@@H](COC(C)(C)C)NC(=O)[C@H](Cc1ccc(O)cc1)NC(=O)[C@H](CO)NC(=O)[C@H](Cc1c[nH]c2ccccc12)NC(=O)[C@H](Cc1cnc[nH]1)NC(=O)[C@@H]1CCC(=O)N1)C(=O)N[C@@H](CCCN=C(N)N)C(=O)N1CCC[C@H]1C(=O)NNC(N)=O: -13%
C[C@H](CCC(=O)O)[C@H]1CC[C@H]2[C@@H]3C(=O)C[C@@H]4C[C@H](O)CC[C@]4(C)[C@H]3CC[C@]12C: 1%
CC(C)c1nc(N(C)S(C)(=O)=O)nc(-c2ccc(F)cc2)c1/C=C/[C@@H](O)C[C@@H](O)CC(=O)O: -4%
CCCC(=O)O[C@]1(C(=O)COC(C)=O)CC[C@H]2[C@@H]3C[C@H](F)C4=CC(=O)C=C[C@]4(C)[C@@]3(F)[C@@H](O)C[C@@]21C: 3%
Oc1ccc(OCc2ccccc2)cc1: 1%
O=C(OC1O[C@@H]2COC(=O)c3cc(O)c(O)c(O)c3-c3c(cc(O)c(O)c3O)C(=O)O[C@H]2[C@H](OC(=O)c2cc(O)c(O)c(O)c2)[C@H]1OC(=O)c1cc(O)c(O)c(O)c1)c1cc(O)c(O)c(O)c1 (stereo partly shown): -92%
O=C(O)c1cc(O)c2c(c1)C(=O)c1cccc(O[C@@H]3O[C@H](CO)[C@@H](O)[C@H](O)[C@H]3O)c1C2=O: -12%
COc1cc(O)c2c(=O)cc(-c3ccccc3)oc2c1: -10%
OCCOCCN1CCN(C(c2ccccc2)c2ccccc2)CC1: -8%
COc1ccc(-c2cc(=O)c3c(O)cc(O[C@@H]4O[C@H](CO[C@@H]5O[C@@H](C)[C@H](O)[C@@H](O)[C@H]5O)[C@@H](O)[C@H](O)[C@H]4O)cc3o2)cc1: -5%

Excerpt of the above (series 4):
O=C(OC1O[C@@H]2COC(=O)c3cc(O)c(O)c(O)c3-c3c(cc(O)c(O)c3O)C(=O)O[C@H]2[C@H](OC(=O)c2cc(O)c(O)c(O)c2)[C@H]1OC(=O)c1cc(O)c(O)c(O)c1)c1cc(O)c(O)c(O)c1 (stereo partly shown): -92%
O=C(O)c1cc(O)c2c(c1)C(=O)c1cccc(O[C@@H]3O[C@H](CO)[C@@H](O)[C@H](O)[C@H]3O)c1C2=O: -12%
COc1cc(O)c2c(=O)cc(-c3ccccc3)oc2c1: -10%
OCCOCCN1CCN(C(c2ccccc2)c2ccccc2)CC1: -8%
COc1ccc(-c2cc(=O)c3c(O)cc(O[C@@H]4O[C@H](CO[C@@H]5O[C@@H](C)[C@H](O)[C@@H](O)[C@H]5O)[C@@H](O)[C@H](O)[C@H]4O)cc3o2)cc1: -5%
